Published values of several laboratories.
Parts stem from different laboratories: compare values within a part only.

Series 1 — method: protein binding microarray; form: double-stranded DNA, one strand shown; sample: in vitro; concentration: not given; reference: not given; direction: higher = stronger binding
Target: Histone acetyltransferase KAT6A, winged helix 1, GST fusion (KAT6A, Homo sapiens, UniProt Q92794, residues 1-85)
Setting: 8-mer, flanks averaged, mean of 2 arrays, mostly near background
Target sequence (chain): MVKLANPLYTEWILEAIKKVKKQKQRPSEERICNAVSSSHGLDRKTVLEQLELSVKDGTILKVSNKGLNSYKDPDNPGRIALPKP
Strand	E-score
CCGGAGTC	0.19
GGCGAACC	0.268
CTCAAAAG	0.0284
TAAGCCTA	-0.151
CCAAAATA	-0.212
CAGAGAGC	-0.0604
AACCTACT	-0.144
AACAGACG	0.0378
AGGGGTGC	-0.0705
CCACGCCC	0.188
AGGTACAG	-0.11
CATACTAC	-0.0279
AGGGTCAT	-0.0491
ACCGCCAG	0.107
AAACCAGG	0.00732
GAAAGAGC	-0.0393
CCTAGACC	-0.158
ACGGAAAC	0.348
AAATTTCT	-0.157
ATACACTG	-0.232
GGCTCGAC	0.0609
TCCCCTCA	-0.192

Series 2 — method: RNA Bind-n-Seq; form: RNA; sample: in vitro; concentration: 365 nM; reference: no-protein control; direction: higher = stronger binding
Target: RNA binding protein fox-1 homolog 2, RRM domain, GST-SBP tag (RBFOX2, Homo sapiens, UniProt O43251-10, residues 100-194)
Setting: natural RNA segment, single round, ends assumed
Constant ends, left off below: GGGAGUUCUACAGUCCGACGAUC … UGGAAUUCUCGGGUGCCAA
Construct (chain): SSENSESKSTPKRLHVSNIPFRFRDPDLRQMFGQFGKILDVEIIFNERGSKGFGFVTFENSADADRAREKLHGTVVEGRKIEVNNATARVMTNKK
Strand	RBNS enrichment (R)
CUUGUCUUCCUAAAACACUAUUAAGCUUAUUGUACUUUUAAGAAAAAUUGCCUUACGUACAUUCCUUUUUCCUUUUUCUGCCUCUUCCCUCAAUAGUUGCCUUUUAGUGC	0.848
UCUUCUACUGCUUUUCAGUUCCCUUCCCUGCUGUUCUAUUUCCUUUGAGUGUAAAGACUCACAGGUGACCUGCUAUCGAGAUAGCCAGAGGGUCAGGAGAGAAUGGGGGA	0.213
CUGGCCCUGAGGGUUUGGAAUCUGACCGGGUGAAGGCACCACCGGCGAGCUUUUGAAAGCAACAGGGCCUAGCCUGCAAACAGUUAUCUUGGGAAACUGUCCAGCCACGU	0.546
GCAGGCCUUCUUCUUCCGGAGUUGGUGAUUCUAACUUUAGAAGUUCCAGGUUGUGGGCUAUGGUAUUUGGGAUCCUGCAAAAGCACAUACACGUUUGUUCUAUGUUGUAA	0.264
GCUUGGCAGAGGGGAAAGUAGAAAGGGUCUUUAUUGGCUAUAAGCUGUUUCUAAGUGCUGAGAGUUUUGCUUGAAGAGGGAGCGAGCCAUCAAGUUCCCAGCUUUUCAGG	0.664
CCUUCUUCUGGUGCUACAGCUCCAAGGGCCCUUCACCUUCAUGUCUGAAAUGGAACUUUGGCUUUUUCAGUGGAAGAAUAUGUUGAAGGUUUCAUUUUGUUCUAGAAAAA	0.391
CAGUGAGGUGCCCAGAGCUGCACCCUUUCCUCCAUUUCCCAUCCCCCAUCUCCUCAACCACCAGGGUCUGAGUUCUAGCAGGGUCCUGGGGGUAUCCCACUGCUAUACUG	0.736
UUUGUAAAAAUAACUGUAGCUUAUAUUCUUUAUUUGUGCAUACCAAUGUGAAAAUCCACUCUUUUAUUAUGUUGAGAUUAUCUUCUGAUCAGGAAGUUUGAGUGCUAUGC	0.741

Series 3 — method: RNA Bind-n-Seq; form: RNA; sample: in vitro; concentration: 1 µM; setting: whole 134-nt RNA, ends assumed; together with: 150 mM KCl; reference: input library; direction: higher = stronger binding
Target: Ras GTPase-activating protein-binding protein 1, C-terminal RGG region (G3BP1, Homo sapiens, UniProt Q13283)
Sequence of UniProt Q13283 (whole entry, looked up): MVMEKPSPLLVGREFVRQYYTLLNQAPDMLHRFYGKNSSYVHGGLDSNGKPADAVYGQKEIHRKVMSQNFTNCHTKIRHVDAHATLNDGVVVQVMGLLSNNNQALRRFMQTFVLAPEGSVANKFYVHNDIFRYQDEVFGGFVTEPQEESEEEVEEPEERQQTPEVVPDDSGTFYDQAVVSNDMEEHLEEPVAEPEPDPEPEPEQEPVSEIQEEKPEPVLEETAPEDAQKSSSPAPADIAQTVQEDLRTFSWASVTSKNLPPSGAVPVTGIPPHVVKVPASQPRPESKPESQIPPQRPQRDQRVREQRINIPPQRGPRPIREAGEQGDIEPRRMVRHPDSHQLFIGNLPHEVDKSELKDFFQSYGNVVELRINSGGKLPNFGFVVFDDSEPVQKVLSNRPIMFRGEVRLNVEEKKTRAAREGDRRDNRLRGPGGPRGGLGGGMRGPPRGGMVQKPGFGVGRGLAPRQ
Constant ends, left off below: GGGAGUUCUACAGUCCGACGAUC … UGGAAUUCUCGGGUGUCAAGG
Strand	log2 enrichment
UCAAGUCCUGUGCUACACAUCGUAUGUACCGAAUCGGAGGAAAAAGGAAAAAGGAAAGUAUUAUGUUACGCCGUUCGGAUCUGCACUUCC	-1.41
AGUCCUGUGCUACACAUCGUAUGUACCGAAUCGGUUUUUUGGUUUUUUGGUUUUUUGGAAAGUAUUAUGUUACGCCGUUCGGAUCUGCAC	-1.68
AAGUCCUGUGCUACACAUCGUAUGUACCGAAUCGGAAAGGGGAAAGGGGAAAGGGGAAAGUAUUAUGUUACGCCGUUCGGAUCUGCACUU	0.112
UGGGAGGUGGAUUUUGUUUAUUUUUUUAGCUCAUUUCCAGGGGUGGGAAUUUUUUUUUAAUAUGUGUCAUGAAUAAAGUUGUUUUUGUAA	3.25
CUCAAGUCCUGUGCUACACAUCGUAUGUACCGAAUCGGCCCGGCCCGGCCCGGAAAGUAUUAUGUUACGCCGUUCGGAUCUGCACUUCCA	-1.67
AAGUCCUGUGCUACACAUCGUAUGUACCGAAUCGGGGAGGGGUUUUUGGGGAGGGGAAAGUAUUAUGUUACGCCGUUCGGAUCUGCACUU	2.33
CAAGUCCUGUGCUACACAUCGUAUGUACCGAAUCGGGUGGGAAAAAGGGAAAGGGAAAGUAUUAUGUUACGCCGUUCGGAUCUGCACUUC	1.39
CACAGACAACACGCACCCACACAGACACAGAGGGAAUGGGUUGGGAUGGGGACAGGGUGCACAGCAGGGCGGGGUAGGACCCCAGCCCCU	-0.104
ACCAUGCAGGUGGGCAUCUUUGGGAAGUGGGGCAAGGGGGGGAUAGGGAGGGGGGUAACACUUUGGGAACAGGUGGUCCCAGGUCGUUUA	2.57

Series 4 — method: RNA Bind-n-Seq; form: RNA; sample: in vitro; concentration: not given; reference: input RNA pool; direction: higher = stronger binding
Target: RING finger protein unkempt homolog, zinc fingers 1-6, GST-SBP tag (UNK, Homo sapiens, UniProt Q9C0B0, residues 30-357)
Sequence of UniProt Q9C0B0 (30-357, looked up): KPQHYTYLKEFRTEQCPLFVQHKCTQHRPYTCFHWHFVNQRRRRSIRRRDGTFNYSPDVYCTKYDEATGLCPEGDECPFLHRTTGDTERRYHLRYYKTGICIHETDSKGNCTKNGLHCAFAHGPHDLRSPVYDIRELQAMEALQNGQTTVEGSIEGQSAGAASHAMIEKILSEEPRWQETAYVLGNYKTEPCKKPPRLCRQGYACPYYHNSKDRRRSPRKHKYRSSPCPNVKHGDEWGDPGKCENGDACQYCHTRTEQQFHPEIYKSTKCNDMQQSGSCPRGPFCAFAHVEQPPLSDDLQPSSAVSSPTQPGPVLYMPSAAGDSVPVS
Setting: RNA with constant flanks, human and mouse sites, ends assumed
Constant ends, left off below: GGGAGUUCUACAGUCCGACGAUC … CAACAGAGGAUUGAGCAUCA
Strand	bound/input enrichment [ratio]
UUGUUUAUUUUAUAUUUGUGUUUUAAGUAAUUUGCAUUGGCUGUUUAUAUUUUCCUUAUAUUUUAAAUAAUCUCCGCUUGGAAGGACUUUGGAAGUGUAUGUGAGAAGUCCUUUCCAUCU	1.8
CGGUAUAAGAGAAAUCAAAUAUAUACCUACAUCGGCUCCAUCCUGGCCUCCGUGAACCCCUACCAGCCCAUCGCCGGGCUGUACGAGCCUGCCACCAUGGAGCAGUACAGCCGGCGCCAC	0.185
AAAGAACUGAUAGGAAAAAAAAUCCUCUGUCACUUUUUUUUUUAAAAAAAGAAAACCUUGUUUAGAUACAAAGUCUUGUAUAAAUUAUAAUUUUUAUUUAAUAAACCUAAAAUGCUCUGU	77.5
CAAAUAAAAAAUUUUGGUCAUUUGGUACUGACUUUCUCUCUCUCUCUCUCUCUCUUUUUUUUUUUUGACAGAGUCUCGCACUGUUGCCUGGGCUGGAAUGCAGUGGUGCGAUCUCGGCUC	0.387
GUCUGCAAAAUGGCCCAGACGAGUCUGCUGCAAGGGAAACAGUUUUACUGUCGAGAAUGGGUUUUCCACAAACUUCAGCACUGCCUCCAGGAGAAAUGGAGCUGCUGUUCGGGUCCAGCC	0.167
GCCAGCAUUCUGACCAACACAAUGGAAGAACUUGAAGAAUCUAGACAGAAAUGUCCGCCAUGCUGGUAUAGAUUUGCCAAUGUGUUCUUGAUCUGGGACUGCUGUGAUGCAUGGUUAAAA	0.332
CUCUGCAUUGAACUUACGUAUCCAUGCCAAGGAAUGGAAUUUCCAUCCUGAGCCAGUUCAGUUAGGUGUCAAUUGAUACUAUUUUAAUUUUUUAUGCAAUCUGAUGAGAUGAGCUCAGAU	9.19
GGGUGUUUGUGACCACUGCUUUCAGAGAUUCUUACCAUGUAUUCUGUUUUACAAUGUUUUCAUAGACUGUUAUGCCAGAAGUUUCCGAUGAUCAAUGUAAUAACCUGUUUUAACUGCCUA	0.36

Excerpt of the above (series 3):
Strand	log2 enrichment
UGGGAGGUGGAUUUUGUUUAUUUUUUUAGCUCAUUUCCAGGGGUGGGAAUUUUUUUUUAAUAUGUGUCAUGAAUAAAGUUGUUUUUGUAA	3.25
AGUCCUGUGCUACACAUCGUAUGUACCGAAUCGGUUUUUUGGUUUUUUGGUUUUUUGGAAAGUAUUAUGUUACGCCGUUCGGAUCUGCAC	-1.68
CAAGUCCUGUGCUACACAUCGUAUGUACCGAAUCGGGUGGGAAAAAGGGAAAGGGAAAGUAUUAUGUUACGCCGUUCGGAUCUGCACUUC	1.39
CUCAAGUCCUGUGCUACACAUCGUAUGUACCGAAUCGGCCCGGCCCGGCCCGGAAAGUAUUAUGUUACGCCGUUCGGAUCUGCACUUCCA	-1.67
